Measurements pooled from the literature.
Protocols differ between the studies behind these lines. Numbers after ± are the reported error.
14-3-3 protein epsilon: 14-3-3 protein epsilon (Homo sapiens, UniProt P62258)
Sequence of UniProt P62258 (whole entry, looked up): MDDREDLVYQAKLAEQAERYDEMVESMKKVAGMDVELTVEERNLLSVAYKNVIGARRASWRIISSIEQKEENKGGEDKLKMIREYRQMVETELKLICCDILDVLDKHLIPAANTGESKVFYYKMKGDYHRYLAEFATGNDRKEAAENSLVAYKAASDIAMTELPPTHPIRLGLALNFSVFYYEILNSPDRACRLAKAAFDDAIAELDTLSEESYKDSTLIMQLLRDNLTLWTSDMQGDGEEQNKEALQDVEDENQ
Sequence of UniProt P07711 (whole entry, looked up): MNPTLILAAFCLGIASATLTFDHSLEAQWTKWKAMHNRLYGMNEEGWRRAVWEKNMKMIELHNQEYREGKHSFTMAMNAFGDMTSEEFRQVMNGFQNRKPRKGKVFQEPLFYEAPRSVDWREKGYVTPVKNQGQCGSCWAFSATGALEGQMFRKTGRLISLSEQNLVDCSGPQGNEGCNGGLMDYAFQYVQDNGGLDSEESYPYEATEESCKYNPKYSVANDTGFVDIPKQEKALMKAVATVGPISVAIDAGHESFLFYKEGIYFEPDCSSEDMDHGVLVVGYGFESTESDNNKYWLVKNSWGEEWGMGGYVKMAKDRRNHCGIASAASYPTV
Sequence of UniProt Q14004 (whole entry, looked up): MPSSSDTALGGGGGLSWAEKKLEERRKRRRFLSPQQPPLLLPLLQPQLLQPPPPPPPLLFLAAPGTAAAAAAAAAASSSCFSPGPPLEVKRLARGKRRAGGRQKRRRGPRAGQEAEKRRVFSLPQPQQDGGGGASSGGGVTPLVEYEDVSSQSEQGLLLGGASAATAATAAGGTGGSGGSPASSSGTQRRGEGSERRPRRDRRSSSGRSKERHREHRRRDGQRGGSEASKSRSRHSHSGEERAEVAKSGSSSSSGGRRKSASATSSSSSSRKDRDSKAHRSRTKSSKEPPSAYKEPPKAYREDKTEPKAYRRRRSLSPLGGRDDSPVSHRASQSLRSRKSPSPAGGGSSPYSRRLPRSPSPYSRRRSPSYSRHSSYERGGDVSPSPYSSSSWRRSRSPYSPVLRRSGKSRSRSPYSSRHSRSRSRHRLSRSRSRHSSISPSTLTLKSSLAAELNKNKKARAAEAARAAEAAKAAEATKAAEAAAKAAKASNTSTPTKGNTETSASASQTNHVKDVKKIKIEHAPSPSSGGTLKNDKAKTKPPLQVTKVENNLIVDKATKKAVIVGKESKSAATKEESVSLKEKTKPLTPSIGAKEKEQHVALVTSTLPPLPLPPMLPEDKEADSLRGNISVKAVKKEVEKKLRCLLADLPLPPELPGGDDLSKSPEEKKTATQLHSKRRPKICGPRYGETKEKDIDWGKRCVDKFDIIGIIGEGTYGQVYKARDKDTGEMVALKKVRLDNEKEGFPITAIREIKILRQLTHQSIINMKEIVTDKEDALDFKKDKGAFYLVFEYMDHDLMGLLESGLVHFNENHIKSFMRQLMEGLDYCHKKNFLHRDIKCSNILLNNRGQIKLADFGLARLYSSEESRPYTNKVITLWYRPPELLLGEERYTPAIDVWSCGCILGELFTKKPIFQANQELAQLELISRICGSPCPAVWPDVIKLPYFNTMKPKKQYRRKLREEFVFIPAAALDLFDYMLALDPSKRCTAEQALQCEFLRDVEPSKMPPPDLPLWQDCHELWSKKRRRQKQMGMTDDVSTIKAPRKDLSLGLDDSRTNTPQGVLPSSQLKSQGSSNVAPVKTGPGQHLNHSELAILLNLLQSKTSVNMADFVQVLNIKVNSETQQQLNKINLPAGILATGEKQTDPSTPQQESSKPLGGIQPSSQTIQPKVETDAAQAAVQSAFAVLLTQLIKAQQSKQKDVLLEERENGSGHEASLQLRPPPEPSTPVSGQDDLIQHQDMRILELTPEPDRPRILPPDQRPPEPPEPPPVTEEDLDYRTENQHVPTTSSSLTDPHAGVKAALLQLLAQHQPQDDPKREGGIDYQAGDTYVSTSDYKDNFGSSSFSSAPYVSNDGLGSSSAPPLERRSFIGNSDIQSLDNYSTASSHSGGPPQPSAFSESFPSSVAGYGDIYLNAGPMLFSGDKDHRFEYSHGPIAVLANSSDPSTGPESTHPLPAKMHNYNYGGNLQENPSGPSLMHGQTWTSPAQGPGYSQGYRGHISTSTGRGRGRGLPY
Sequence of UniProt P28335 (whole entry, looked up): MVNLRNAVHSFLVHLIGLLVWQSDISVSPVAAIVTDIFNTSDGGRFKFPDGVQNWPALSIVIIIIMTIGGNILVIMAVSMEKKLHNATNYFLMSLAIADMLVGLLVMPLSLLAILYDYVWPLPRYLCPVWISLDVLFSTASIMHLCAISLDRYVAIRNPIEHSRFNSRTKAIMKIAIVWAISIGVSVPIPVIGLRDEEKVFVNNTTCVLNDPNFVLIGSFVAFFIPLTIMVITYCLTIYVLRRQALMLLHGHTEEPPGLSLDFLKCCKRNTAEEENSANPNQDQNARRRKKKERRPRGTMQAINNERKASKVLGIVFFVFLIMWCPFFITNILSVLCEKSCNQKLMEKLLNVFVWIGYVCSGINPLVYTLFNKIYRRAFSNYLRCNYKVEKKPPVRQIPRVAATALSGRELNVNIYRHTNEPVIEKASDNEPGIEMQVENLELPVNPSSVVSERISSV
Sequence of UniProt P50391 (whole entry, looked up): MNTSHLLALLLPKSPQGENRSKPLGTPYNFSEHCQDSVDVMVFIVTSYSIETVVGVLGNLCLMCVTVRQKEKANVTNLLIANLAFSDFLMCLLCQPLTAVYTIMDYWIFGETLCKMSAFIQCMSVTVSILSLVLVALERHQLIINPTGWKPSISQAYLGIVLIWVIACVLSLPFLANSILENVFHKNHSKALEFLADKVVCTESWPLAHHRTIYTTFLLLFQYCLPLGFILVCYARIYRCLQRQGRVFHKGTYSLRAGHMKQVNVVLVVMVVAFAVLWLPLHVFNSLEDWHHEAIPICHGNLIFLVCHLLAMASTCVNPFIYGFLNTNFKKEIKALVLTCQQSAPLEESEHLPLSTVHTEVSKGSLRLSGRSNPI
Sequence of UniProt P18089 (whole entry, looked up): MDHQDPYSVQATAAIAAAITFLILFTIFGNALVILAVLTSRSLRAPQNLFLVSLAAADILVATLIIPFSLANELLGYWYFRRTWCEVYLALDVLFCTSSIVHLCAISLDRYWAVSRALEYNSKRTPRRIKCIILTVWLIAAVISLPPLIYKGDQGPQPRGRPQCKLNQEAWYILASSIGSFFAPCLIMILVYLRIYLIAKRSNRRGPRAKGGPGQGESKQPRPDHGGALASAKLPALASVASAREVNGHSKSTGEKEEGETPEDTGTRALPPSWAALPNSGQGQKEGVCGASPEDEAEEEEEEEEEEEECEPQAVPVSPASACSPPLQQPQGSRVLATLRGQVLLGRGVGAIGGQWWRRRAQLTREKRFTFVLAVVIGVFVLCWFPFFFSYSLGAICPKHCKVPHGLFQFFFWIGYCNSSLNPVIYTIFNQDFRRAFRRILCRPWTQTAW
Sequence of UniProt Q9WVQ1 (whole entry, looked up): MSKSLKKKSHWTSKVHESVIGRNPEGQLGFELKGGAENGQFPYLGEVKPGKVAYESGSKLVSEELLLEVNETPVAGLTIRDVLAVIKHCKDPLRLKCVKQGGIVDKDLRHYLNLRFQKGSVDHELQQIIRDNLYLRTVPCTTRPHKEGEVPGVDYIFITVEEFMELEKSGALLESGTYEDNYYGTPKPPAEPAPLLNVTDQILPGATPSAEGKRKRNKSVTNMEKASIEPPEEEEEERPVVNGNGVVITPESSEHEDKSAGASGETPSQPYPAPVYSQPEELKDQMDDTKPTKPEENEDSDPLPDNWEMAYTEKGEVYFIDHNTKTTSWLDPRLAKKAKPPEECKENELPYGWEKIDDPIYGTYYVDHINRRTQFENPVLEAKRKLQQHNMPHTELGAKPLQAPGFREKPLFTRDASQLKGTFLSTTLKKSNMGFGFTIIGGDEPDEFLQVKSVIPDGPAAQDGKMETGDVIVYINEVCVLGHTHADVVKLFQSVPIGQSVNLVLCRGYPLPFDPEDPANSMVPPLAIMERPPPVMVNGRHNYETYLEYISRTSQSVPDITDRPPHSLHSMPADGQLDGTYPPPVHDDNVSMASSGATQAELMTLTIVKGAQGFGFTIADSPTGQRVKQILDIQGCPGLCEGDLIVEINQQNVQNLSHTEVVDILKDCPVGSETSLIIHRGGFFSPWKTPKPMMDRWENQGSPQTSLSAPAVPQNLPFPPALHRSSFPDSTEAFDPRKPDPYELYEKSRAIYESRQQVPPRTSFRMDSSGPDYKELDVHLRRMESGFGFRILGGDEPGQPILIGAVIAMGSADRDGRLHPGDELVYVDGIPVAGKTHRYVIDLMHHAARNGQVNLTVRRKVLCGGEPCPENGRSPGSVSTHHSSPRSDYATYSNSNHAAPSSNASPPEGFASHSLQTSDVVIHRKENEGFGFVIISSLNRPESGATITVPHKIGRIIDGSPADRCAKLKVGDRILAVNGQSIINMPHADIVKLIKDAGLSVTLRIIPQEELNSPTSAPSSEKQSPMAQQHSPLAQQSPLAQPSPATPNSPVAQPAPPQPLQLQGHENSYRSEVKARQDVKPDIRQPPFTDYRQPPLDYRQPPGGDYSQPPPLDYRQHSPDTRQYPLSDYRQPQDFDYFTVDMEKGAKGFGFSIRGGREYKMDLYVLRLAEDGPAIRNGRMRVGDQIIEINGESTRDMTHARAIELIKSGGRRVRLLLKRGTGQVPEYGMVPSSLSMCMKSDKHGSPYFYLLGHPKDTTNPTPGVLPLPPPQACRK
Sequence of UniProt Q9UKP6 (whole entry, unmodified, looked up): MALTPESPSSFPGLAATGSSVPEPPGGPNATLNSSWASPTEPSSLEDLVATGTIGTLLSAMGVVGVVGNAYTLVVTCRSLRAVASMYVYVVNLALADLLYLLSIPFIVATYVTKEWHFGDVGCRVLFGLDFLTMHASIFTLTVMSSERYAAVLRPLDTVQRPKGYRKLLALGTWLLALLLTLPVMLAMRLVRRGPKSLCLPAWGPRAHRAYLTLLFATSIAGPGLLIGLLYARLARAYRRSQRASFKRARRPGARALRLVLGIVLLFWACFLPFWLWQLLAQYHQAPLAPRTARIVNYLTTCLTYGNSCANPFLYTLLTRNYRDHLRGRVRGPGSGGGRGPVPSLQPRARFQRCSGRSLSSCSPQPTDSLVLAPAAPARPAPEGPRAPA

SMILES	target or system	test	test system	setting	scale	endpoint	value
O[C@H]1[C@H](n2cnc3c(N[C@@H](C4CCC4)C4CC4)nc(I)nc32)[C@H]2C[C@@]2(C(F)F)[C@H]1O	HTR2C (Homo sapiens, UniProt P28335)	calcium signal, antagonist				Kb	3280 nM
CC[C@H](C)[C@H](NC(=O)[C@H](CO)NC(=O)[C@H](Cc1ccc(O)cc1)NC(=O)[C@H](Cc1ccc(O)cc1)NC(=O)[C@H](CC(N)=O)NC(=O)CNC(=O)[C@H](CO)NC(=O)[C@H](Cc1ccc(O)cc1)NC(=O)[C@H](CO)NC(=O)[C@H](CO)NC(=O)[C@H](CC(N)=O)NC(=O)COCCOCCNC(=O)CN1CCN(CC(=O)O)CCN(CC(=O)O)CCN(CC(=O)O)CC1)C(=O)N[C@@H](CC(C)C)C(N)=O [copper-64 labelled]		dynamic PET	KPC mouse Ptf1a-CreER tdTomato, metastases	intravenous, 4.6 MBq/mouse, 1.1 min, 84 d after tamoxifen		tissue uptake	12.8 %ID/mL
COc1ccccc1-c1n[nH]c2nc(N[C@H]3CC[C@H](NS(=O)(=O)CC(C)C)CC3)ncc12		bead binding, competition bead pull-down, measured: LINJ.31.1150	Leishmania donovani extract	10 µM	relative to: vehicle	relative abundance	0.95
Cc1ccc(N2CC3CC(C2)N3)cc1C(=O)NC1(c2ccc3c4c(cccc24)C(=O)N3C)CC1	Cytochrome P450 2D6 (CYP2D6, Homo sapiens, UniProt P10635)	enzyme activity, inhibitor				IC50	> 50 µM
CC(=O)N[C@@H](CCCNC(=N)N)C(=O)N[C@@H](Cc1ccc(O)cc1)C(=O)N[C@@H](CCCNC(=N)NC(=O)NCCCCN)C(=O)N[C@H](CC(C)C)C(=O)N[C@@H](CCCNC(=N)N)C(=O)N[C@@H](Cc1ccc(O)cc1)C(N)=O	NPY4R (Homo sapiens, UniProt P50391)	calcium signal, antagonist				Kb	531 nM
O=C1NC(=O)c2c1c1cc(F)c[n+]3c1c1c2c2cc(O)ccc2[n]1[Ru-4]312([N]=C=S)[S+]3CC[S+]1CC[S+]2CC3 (stereo not shown)	PKN2 (Homo sapiens, UniProt Q16513)	enzyme activity		100 nM, human enzyme, added: 10 µM ATP	relative to: untreated	remaining activity	33%
Cc1ccc(C)c(OCCn2cc(C(=O)O)c3ccccc32)c1	GTPase HRas (HRAS, Homo sapiens, UniProt P01112)	GTP binding, flow cytometry		EDTA, added: BODIPY-GTP 100 nM		EC50	347 nM
CN(C)[C@H]1C[C@@]23CC[C@@]4(O2)C(=CC[C@]2(C)[C@@H](c5ccc6ccncc6c5)CC[C@H]24)C=C3[C@@H](O)[C@@H]1O	PIK3C3 (Homo sapiens, UniProt Q8NEB9)	ATP probe labelling, inhibitor, KiNativ profiling		0.1 µM		inhibition	1.2%
CC(=O)NCCCC[C@H](NC(=O)CNC(=O)CNC(=O)[C@@H](NC(=O)[C@H](CO)NC(=O)[C@H](CCCCNC(C)=O)NC(=O)[C@H](CCCNC(=N)N)NC(=O)[C@H](C)NC(=O)[C@@H](NC(=O)[C@@H](N)CCC(N)=O)[C@@H](C)O)[C@@H](C)O)C(=O)N[C@@H](C)C(=O)N1CCC[C@H]1C(=O)N[C@@H](CCCNC(=N)N)C(=O)N[C@@H](CCCCN)C(=O)N[C@@H](CCC(N)=O)C(=O)O	YEATS domain-containing protein 4, YEATS domain (Homo sapiens, UniProt O95619)	isothermal titration calorimetry		pH 7.6, 25 °C, added: histone peptide		Kd	120 ± 6 µM
CC(=O)N[C@@H](CCCNC(=N)N)C(=O)N[C@H](C(=O)N[C@@H](CCCCN)C(=O)N[C@@H](CO)C(=O)N[C@@H](CCCNC(=N)N)C(=O)N[C@H](C(=O)N[C@@H](Cc1c[nH]c2ccccc12)C(=O)N[C@@H](C)C(=O)N[C@H](C(N)=O)C(C)C)[C@@H](C)OP(=O)(O)O)[C@@H](C)O	14-3-3 protein epsilon	surface plasmon resonance		298 K		binding free energy	-9.12 ± 0.02 kcal/mol
CS(C)(=O)=Nc1ccc(-c2ccc(-c3nc4cc(O[C@@H]5CO[C@H]6[C@@H]5OC[C@H]6O)[nH]c4cc3F)cc2)cc1	CAMK1 (Homo sapiens, UniProt Q14012)	enzyme activity, inhibitor		10 µM		inhibition	15%
CC(=O)N[C@@H](CCCNC(=N)N)C(=O)N[C@H](C(=O)N[C@@H](CCCCN)C(=O)N[C@@H](CO)C(=O)N[C@@H](CCCNC(=N)N)C(=O)N[C@H](C(=O)N[C@@H](Cc1c[nH]c2ccccc12)C(=O)N[C@@H](C)C(=O)N[C@@H](C)C(N)=O)[C@@H](C)OP(=O)(O)O)[C@@H](C)O	14-3-3 protein epsilon	surface plasmon resonance		298 K		binding free energy	-9.71 ± 0.08 kcal/mol
N[C@H]1CCSC1=O	CA2 (Homo sapiens, UniProt P00918)	CO2 hydration activity, inhibitor, stopped-flow CO2 hydration		room temperature preincubation		Ki	> 100000 nM
CC(C)[C@H](NC(=O)[C@@H]1CSSC(C)(C)[C@H](NC(=O)[C@@H](N)CC(=O)O)C(=O)N[C@@H](Cc2ccccc2)C(=O)N[C@@H](Cc2c[nH]c3ccccc23)C(=O)N[C@@H](CCCCN)C(=O)N[C@@H](Cc2ccc(O)cc2)C(=O)N1)C(=O)O	UTS2R (Homo sapiens, UniProt Q9UKP6, L200A)	IP1 accumulation, agonist, HTRF	HEK293T cells	1 h, 37 °C		EC50	0.631 nM
O=C(N[C@@H]1c2ccccc2C[C@H]1N1CCCC1)c1ccc(-c2ccnc3[nH]ccc23)nc1	CDK13 (Homo sapiens, UniProt Q14004)	binding, competition with immobilised ligand				Kd	10 µM
O=C1NC2(CC2)COc2ncc(F)cc2[C@H]2COCCN2c2ccn3ncc1c3n2			Sprague-Dawley rat, female, serum	oral, 10 mg/kg/day, end of treatment, 4-week subacute toxicity		serum sodium	146 ± 1 mmol/L
Cc1cc(C)nc(Sc2nc3sccn3c2[N+](=O)[O-])n1	Procathepsin L (CTSL, Homo sapiens, UniProt P07711)	enzyme activity, inhibitor, FRET				IC50	55.4 µM
CC(=O)N[C@@H](CCCNC(=N)N)C(=O)N[C@H](C(=O)N[C@@H](CCCCN)C(=O)N[C@@H](CO)C(=O)N[C@@H](CCCNC(=N)N)C(=O)N[C@H](C(=O)N[C@@H](Cc1c[nH]c2ccccc12)C(=O)N[C@@H](C)C(=O)N1Cc2ccccc2C[C@H]1C(N)=O)[C@@H](C)OP(=O)(O)O)[C@@H](C)O	14-3-3 protein epsilon	surface plasmon resonance		298 K		binding free energy	-10.23 ± 0.02 kcal/mol
Cc1cc(O)cc(C)c1C[C@H](N)C(=O)N[C@H](CCCNC(=N)N)C(=O)N[C@@H](Cc1ccccc1)C(=O)N(C)CC(=O)N(C)Cc1cc(C(F)(F)F)cc(C(F)(F)F)c1	OPRD1 (Homo sapiens, UniProt P41143, W284A)					Ki	3.31 ± 0.65 nM
COc1cc2c(cc1O)C(CCc1ccc(Cl)cc1)N(C)CC2 (stereo not shown)	ADRA2B (Homo sapiens, UniProt P18089)	cell-free assay, radioligand				Ki	480 nM
CC(C)C[C@H](NC(=O)[C@H](CO)NC(=O)[C@@H]1CCCN1C(=O)[C@H](CCC(N)=O)NC(=O)[C@H](Cc1ccccc1)NC(=O)[C@H](C)NC(=O)[C@H](CCCCN)NC(=O)[C@H](CC(C)C)NC(=O)[C@H](Cc1ccc(O)cc1)NC(=O)[C@H](COP(=O)(O)O)NC(=O)[C@H](CCC(=O)O)NC(=O)[C@H](CCCNC(=N)N)NC(=O)[C@H](CCCNC(=N)N)NC(=O)[C@H](C)NC(=O)[C@H](C)N)C(=O)O	Membrane-associated guanylate kinase, WW and PDZ domain-containing protein 2 (Magi2, Mus musculus, UniProt Q9WVQ1)	ITC		pH 8.0, 25 °C, added: tandem peptide		Kd	0.07 µM
COc1ccccc1-c1n[nH]c2nc(NC3CCN(C(=O)Cc4ccc(F)cc4F)CC3)ncc12		bead binding, competition bead pull-down, measured: LINJ.27.1220	Leishmania donovani extract	10 µM	relative to: vehicle	relative abundance	1.03

For quick reference, copied from above:
SMILES	target or system	test	test system	setting	scale	endpoint	value
CS(C)(=O)=Nc1ccc(-c2ccc(-c3nc4cc(O[C@@H]5CO[C@H]6[C@@H]5OC[C@H]6O)[nH]c4cc3F)cc2)cc1	CAMK1 (Homo sapiens, UniProt Q14012)	enzyme activity, inhibitor		10 µM		inhibition	15%
